# Results of several laboratories.
# A part holds a random share of what one study measured. Substitutions count along the parent as printed.

# Study 1 — target: CREB3L1, bZIP domain (human); technique: DHFR protein complementation; matrix: yeast; relative to: wild-type JUN-FOS pair; direction: higher = stronger binding
# Notes: single substitutions, most at no-binding floor
# Parent: JUN, bZIP domain (human); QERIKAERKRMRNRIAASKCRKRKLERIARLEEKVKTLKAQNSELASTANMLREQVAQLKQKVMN; partner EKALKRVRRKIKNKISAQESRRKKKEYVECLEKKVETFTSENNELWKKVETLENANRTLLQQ
Substitution,binding fitness [natural log]
E54H,-1.36
I28Q,-1.44
T48N,-1.4
R53M,-1.44
A29I,-1.5
K39Q,-1.45
T48F,-1.51
A40D,-1.43
Q41S,-1.48
M51K,-1.32
E32N,-1.58
E54Y,-1.45
N42L,-1.5
R53C,-1.56
A57S,-1.52
K39C,-1.41
K36C,-1.47
K36V,-1.42
A46P,-1.55
R30E,-1.3
Q55Y,-1.32
L31I,-1.55
L52K,-1.38
E33R,-1.38
R30V,-1.25

# Study 2 — target: CCNE2, cyclin fold, Cln2 fusion (human); technique: yeast growth competition, sequencing; matrix: yeast; notes: strong parent motif; relative to: not given; direction: higher = stronger binding
# Parent: BRCA2 docking peptide (human); PSIKRNLLNEFDR; partner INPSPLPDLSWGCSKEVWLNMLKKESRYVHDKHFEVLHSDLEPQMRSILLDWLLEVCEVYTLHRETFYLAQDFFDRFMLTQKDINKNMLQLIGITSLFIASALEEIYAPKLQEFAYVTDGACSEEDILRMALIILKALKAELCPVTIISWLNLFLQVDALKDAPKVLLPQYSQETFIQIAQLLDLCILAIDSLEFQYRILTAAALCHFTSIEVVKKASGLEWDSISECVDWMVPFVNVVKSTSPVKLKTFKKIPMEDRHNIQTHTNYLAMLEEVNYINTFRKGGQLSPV
Substitution,normalised enrichment score
PSIKRVLLNEFDR [N6V],0.241
PSIFRNLLNEFDR [K4F],0.421
PEIKRNLLNEFDR [S2E],0.219
PHIKRNLLNEFDR [S2H],1.09
PQIKRNLLNEFDR [S2Q],1.68
PSIYRNLLNEFDR [K4Y],0.283
PAIKRNLLNEFDR [S2A],1.21
PSIKKNLLNELDR [R5K F11L],-0.192
PSIKINLLNEFDR [R5I],-0.132
PSIKRNLLGEFDR [N9G],1.32
PSIKRNLLNEFLR [D12L],1.56
CSIKRNLLNEFDR [P1C],1.67
PSDKRNLLNEFDR [I3D],-0.49
PSIKRNLHNEFDR [L8H],0.471
PRIKRNLLNEFDR [S2R],1.39
PSIKRNLLNEFNR [D12N],1.92
PSIKRNLLFEFDR [N9F],1.53
PSIKRNLLNEFER [D12E],2.48
PSIKRNLLNEMDR [F11M],0.775
PSIKYNLLNEFDR [R5Y],-0.429
PSIKRNLLNEVDR [F11V],1.43
PSIKRNLLNEFDS [R13S],1.42
PSIKRNLLNEFDG [R13G],1.44
PSIKRNKLNEFDR [L7K],0.955
TSIKRNLLNEFDR [P1T],1.52

# Study 3 — technique: RNA Bind-n-Seq; molecule type: RNA; matrix: in vitro; concentration: not given; relative to: input RNA pool; direction: higher = stronger binding
# Target: RING finger protein unkempt homolog, zinc fingers 1-6, GST-SBP tag (UNK, Homo sapiens, UniProt Q9C0B0, residues 30-357)
# Chain of UniProt Q9C0B0 (30-357, looked up): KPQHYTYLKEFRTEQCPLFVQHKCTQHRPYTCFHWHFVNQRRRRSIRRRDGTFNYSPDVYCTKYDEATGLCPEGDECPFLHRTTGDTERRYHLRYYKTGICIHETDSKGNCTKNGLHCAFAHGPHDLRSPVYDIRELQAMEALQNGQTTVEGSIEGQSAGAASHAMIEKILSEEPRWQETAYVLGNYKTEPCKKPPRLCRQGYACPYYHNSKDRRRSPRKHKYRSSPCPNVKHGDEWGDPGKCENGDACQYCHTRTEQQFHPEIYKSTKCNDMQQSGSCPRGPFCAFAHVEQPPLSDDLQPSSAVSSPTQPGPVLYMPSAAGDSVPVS
# Notes: RNA with constant flanks, human-mouse chimeric sites, ends assumed
# Constant ends, left off below: GGGAGUUCUACAGUCCGACGAUC … CAACAGAGGAUUGAGCAUCA
Oligonucleotide,bound/input enrichment [ratio]
AAAGCCCAAGUAUUUUGAAAAAACUCGAACAGAUUUGACAAGGGUAGCCAGCUUGGAGUCUAGCAACUUUGCCAAUGGUUUACCAAUCUGGGGGCUUUGUUUUUCUUUCUUCUUUCAAAU,0.211
UCAGAAGCUGUGCUGGGUCACUUUUCAUAUCCAGAUCCUUCACAGUGGACAGAUGAAGAACUGGGAAUCCCUCCUGAUGACGAGGACUGACACUGUAGACUCAGCCUACGAGUAGGAGCA,0.31
CGCUUGGAUGAGGCGGGUGUCACAGAUGAAGUGCUAGAUUCUGCCAUGCAAGCCUUCUUACUAGAAAUUAUCGUUAAACAUGGGGAGCCGGCACCUUAUUUAUGUAACAAAGAUCCGUUU,0.426
AUAUUUCAUAUUGCAAAGAUGUUUACAAGUAUUUUAAUUUAAGUUCAGUGAACUUUUUUGUAGCUGGGUUAAAUCUUUUUAUUUUAGUAUGGCCUUAAUGGCAAAGACACUGUAUUAUUU,4.07
UCUUAACUUAUUCAUUUAACUUAUUUUUAGCACUUAGUAAAUAUUGUUAGUCUUAGACAAUAGCUCACAUCUUUACAGAAGCAUGCCCUCCCUGUCCAUUUGUCUUAUAACAUGACCCAG,215
UAAGUCCAUUUGUAAGCCUUCGCUCAUAAAGUUUUAAAUUCUGGACCAAUAGUGUUUGUUUCCUGAUUAUUGUAUCCAAUACUUUGCCUAGUAUGUAACUCACUCUUACUGAUAAUAAAA,1.52
AAACAUCUGUCUUUAAGGUCAACGUAGGAGAAUGCUGGGGUGAUCAUUGUUGCCCAUGUGCCUUCUGACUGAGCUUUAAUGCUGUUCCAUGUUACAUCUUUCCUUCACUCCAGAAUUGUU,0.105
GAUGAUAAUCACACAAACAAGUCACUGUUACAUGACCAGCCUUGGGAUUCUUUUCCUGAUUAGUAUUCUCCCUGGAACCACUAGCCAAGGGGAAUCAAGACGACAAGAACCCGGGGACUU,0.189

# Study 4 — target: OGT, full length, His-tagged (human); technique: phage display, sequencing; matrix: in vitro; concentration: 1 µg OGT; relative to: input library; direction: higher = stronger binding; parent: peptide; GDFPVMFMPKYSIIY
# Notes: single substitutions, 15-mer displayed peptide, unchanged parent 5.27
Substitution,fold enrichment [fold]
I14R,2.54
D2M,4.76
Y15A,1.79
M8V,1.34
M8F,2.43
D2S,4.65
S12T,4.79
M6R,4.87
Y15Q,0.901
S12G,0.831
F3T,3.67
V5E,4.55
D2V,4.52
S12Y,6.1
F3S,4.99
M6F,8.25
V5Q,5.44
S12A,6
M8Y,2.29
G1H,7.52
P4G,7.76
V5M,6.41
I14P,1.02
M8R,1.34

# Other studies, line by line
Molecule,target,assay,system,conditions,scale,quantity,value
"PhoQ, residues 284 288 289 292 302 303 AANNSF","PhoP, residues 12 14 15 18 19 AGCRL (Escherichia coli, UniProt P23836)","Sort-seq, item: YFP reporter",E. coli,"PhoQ-PhoP variant library, added: 10 µM Mg2+","relative to: high Mg2+ state, higher = stronger signaling",fold induction,2.71

# For quick reference, copied from above (study 3):
Oligonucleotide,bound/input enrichment [ratio]
AAAGCCCAAGUAUUUUGAAAAAACUCGAACAGAUUUGACAAGGGUAGCCAGCUUGGAGUCUAGCAACUUUGCCAAUGGUUUACCAAUCUGGGGGCUUUGUUUUUCUUUCUUCUUUCAAAU,0.211
UCAGAAGCUGUGCUGGGUCACUUUUCAUAUCCAGAUCCUUCACAGUGGACAGAUGAAGAACUGGGAAUCCCUCCUGAUGACGAGGACUGACACUGUAGACUCAGCCUACGAGUAGGAGCA,0.31
CGCUUGGAUGAGGCGGGUGUCACAGAUGAAGUGCUAGAUUCUGCCAUGCAAGCCUUCUUACUAGAAAUUAUCGUUAAACAUGGGGAGCCGGCACCUUAUUUAUGUAACAAAGAUCCGUUU,0.426
AUAUUUCAUAUUGCAAAGAUGUUUACAAGUAUUUUAAUUUAAGUUCAGUGAACUUUUUUGUAGCUGGGUUAAAUCUUUUUAUUUUAGUAUGGCCUUAAUGGCAAAGACACUGUAUUAUUU,4.07
UCUUAACUUAUUCAUUUAACUUAUUUUUAGCACUUAGUAAAUAUUGUUAGUCUUAGACAAUAGCUCACAUCUUUACAGAAGCAUGCCCUCCCUGUCCAUUUGUCUUAUAACAUGACCCAG,215
UAAGUCCAUUUGUAAGCCUUCGCUCAUAAAGUUUUAAAUUCUGGACCAAUAGUGUUUGUUUCCUGAUUAUUGUAUCCAAUACUUUGCCUAGUAUGUAACUCACUCUUACUGAUAAUAAAA,1.52
AAACAUCUGUCUUUAAGGUCAACGUAGGAGAAUGCUGGGGUGAUCAUUGUUGCCCAUGUGCCUUCUGACUGAGCUUUAAUGCUGUUCCAUGUUACAUCUUUCCUUCACUCCAGAAUUGUU,0.105
GAUGAUAAUCACACAAACAAGUCACUGUUACAUGACCAGCCUUGGGAUUCUUUUCCUGAUUAGUAUUCUCCCUGGAACCACUAGCCAAGGGGAAUCAAGACGACAAGAACCCGGGGACUU,0.189
